Experimental data collected from several papers.
Each numbered part is a random draw from the data of one study; scales do not carry over between parts. Substitutions count along the parent as printed.

Set 1
Target: JUN, bZIP domain (human)
Technique: DHFR protein complementation
Matrix: yeast
Setting: single substitutions, most at no-binding floor
Reference: wild-type JUN-FOS pair
Direction: higher = stronger binding
Endpoint: binding fitness
Parent: JUN, bZIP domain (human); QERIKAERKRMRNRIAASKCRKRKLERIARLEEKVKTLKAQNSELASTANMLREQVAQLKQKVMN
R53D: -1.21 natural log
L45T: -1.33 natural log
L31D: -1.32 natural log
L45E: -1.28 natural log
L59V: -1.22 natural log
L59N: -1.35 natural log
A40P: -1.39 natural log
V56P: -1.27 natural log
L52A: -1.2 natural log
Q41S: -1.51 natural log
V56G: -1.23 natural log
N42T: -1.24 natural log

Set 2
Target: RING finger protein unkempt homolog, zinc fingers 1-6, GST-SBP tag (UNK, Homo sapiens, UniProt Q9C0B0, residues 30-357)
Sequence of UniProt Q9C0B0 (30-357, looked up): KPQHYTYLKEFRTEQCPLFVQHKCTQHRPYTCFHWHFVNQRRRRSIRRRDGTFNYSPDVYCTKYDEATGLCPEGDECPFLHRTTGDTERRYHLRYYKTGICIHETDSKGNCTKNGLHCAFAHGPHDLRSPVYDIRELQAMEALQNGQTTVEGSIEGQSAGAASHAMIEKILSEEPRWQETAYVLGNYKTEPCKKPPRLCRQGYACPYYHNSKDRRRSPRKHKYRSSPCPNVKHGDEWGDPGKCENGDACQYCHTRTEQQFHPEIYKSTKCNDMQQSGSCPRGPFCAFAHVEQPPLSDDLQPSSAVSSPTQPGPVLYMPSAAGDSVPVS
Technique: RNA Bind-n-Seq
Molecule type: RNA
Matrix: in vitro
Concentration: not given
Setting: RNA with constant flanks, human-mouse chimeric sites, ends assumed
Reference: input RNA pool
Direction: higher = stronger binding
Endpoint: bound/input enrichment
All sequences stand within: GGGAGUUCUACAGUCCGACGAUC … CAACAGAGGAUUGAGCAUCA
UUGUGCAAUGAUGCUUGAGAUGGUUUUUGCAAAAGCAGAAAUCGCUGCAAGGUAAUCACAAUAGAUAAAAGUGGUAUUUUAAACCUUUGAAAGGAAUGGAUGUAACUGUACCUUGGUACA: 0.342 ratio
ACACAAUAUGAGACCAACAGCAUGGACUUCAAAGUCGGGGCAGAUGGGACAGUCUUCGCCACCCGGGAGCUGCAGGUCCCCUCAGAGCAGGUGGCGUUCACGGUGACUGCAUGGGACAGC: 0.233 ratio
GUCAACAGUUGUCUCAACCCCAUCCUCUAUGCUUUCUUGGAUGAGAACUUCAAGGCCUGCUUCCGCAAGUUCUGCUGUGCAUCUGCCCUGCGCCGGGACGUGCAGGUGUCUGACCGCGUG: 0.371 ratio
AGAUAUUAAGUAUUUUGAAAAAACUCGAACAGAUUUAACAAGGGUAGCCAGCUUGGAGUCUAGCAACUUGCCAAUGUGUUUACCAAUCUGGGGGCUUGUUUUUCUUUUCUUCUUUCAAAU: 0.329 ratio
ACAGUUAUAUUGUUGAGUUUCAUUUUCAUAUAUUCUUAUGGUGUCUGCUUGCCUGUGACUUCUGGUAAAAUAAAAUAAGCCUUUGAAAAUAUUUUAGCAUGGUAUUUAACAUUUUCUAAA: 1.25 ratio
GUAGCUGGGACUACAGAAGAAUGCUGAAUUUCAGUCACUUGCUGAUGACUUCUGAUGUCCCAGCAAAUGUUGGCAUUGUUGACUGCUCUGUGAAGACUUCUGAGGACCCACGUCUAAGGU: 0.0789 ratio
CAACAGAGUCUAGGAUGGGUUCAUUACAUGAUUCAUGAGCCAGAACCGCAUAUUCUUCUCUUUAGACGACCUCUUCCAAAAGAUCAACAAAAAUGAAGUGCAGCUGGGGAUCGUCAAUCU: 0.309 ratio
UUGAAAACUGAUUCAAGUAAGUUUGAGUAUCACAAUGUUAGCUUUCUAAUUCCACACAAGUACUUGGUUUUUACAGUAACCCCACAUACAUCACCCCAGCGCCAUUUGUAAAGAGCAACU: 1.08 ratio
GUAGCUGGGACUACAGAAAUGCUGGUAGUGCUCCGGCCUUGCUGAUGACUUCUGAUGUCCCAGCAAAUGUUGGCAUUGUUGACUGCUCUGUGAAGACUUCUGAGGACCCACGUCUAAGGU: 0.0522 ratio
CUGUGACUGAUGGCAGCUACCUGAGUGGCAGCUGAAGUUGACUCCCUCUCCUUGCCUGAACCCCCCCCUUUUGUUCCCCCAUCCCCCAGUGUCGGCUGAGAUGUUGCCUCUGCACGGUUC: 0.962 ratio
CAGACUGUGUCAUACUUUUUAGACAUUGCCAUAGGUAUUACAGAGCACCUGGCCACAUUCUAGGUUUGUGUUAUUUCUCAGCUAUGGAUAUGAUCAAAUGAGAACACUGCUUAACUAAUG: 1.62 ratio

Set 3
Target: ABI1, truncated, D143A, DHFR fusion (Arabidopsis thaliana)
Technique: DHFR PCA, deep sequencing
Matrix: yeast
Setting: methotrexate growth selection, single substitutions
Added: (+)-ABA 0.39 µM
Reference: wild-type fitted maximum
Direction: higher = stronger binding
Endpoint: relative binding score
Parent: PYL1, truncated, DHFR fusion (Arabidopsis thaliana); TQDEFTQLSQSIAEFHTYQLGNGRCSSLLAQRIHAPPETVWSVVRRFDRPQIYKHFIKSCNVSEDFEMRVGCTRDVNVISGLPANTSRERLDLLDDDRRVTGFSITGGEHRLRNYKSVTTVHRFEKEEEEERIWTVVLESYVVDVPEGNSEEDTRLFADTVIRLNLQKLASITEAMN
S27C: 0.425%
P50S: -10.7%
V76Y: -1.72%
Y53W: 52.3%
Q10S: 56.5%
R32C: 29.5%
E128Y: 28.3%
S9R: 60.6%
E131M: 47.1%
I172M: 1.6%
R113P: 63.3%
E127N: 52.7%
E127K: 62.4%
R46M: 12.9%
N61A: 45.8%
R155Q: 13.6%
V136G: -3.85%

Set 4
Target: RNA binding protein fox-1 homolog 2, RRM domain, GST-SBP tag (RBFOX2, Homo sapiens, UniProt O43251-10, residues 100-194)
Technique: RNA Bind-n-Seq
Molecule type: RNA
Matrix: in vitro
Concentration: 365 nM
Setting: natural RNA segment, single round, ends assumed
Reference: no-protein control
Direction: higher = stronger binding
Endpoint: RBNS enrichment (R)
All sequences stand within: GGGAGUUCUACAGUCCGACGAUC … UGGAAUUCUCGGGUGCCAA
Target sequence (chain): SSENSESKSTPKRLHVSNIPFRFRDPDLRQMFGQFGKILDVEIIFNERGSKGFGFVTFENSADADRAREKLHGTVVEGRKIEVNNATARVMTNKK
GAGCCGUCACCAUAAGUAAAUCAAGUCCCUUCCUCCCAGUCACACGGCUGAGCGCAGACGGCUUGUUUUAAAAAGAUGAUGAACAUGACAGUAUUUUGUUUUGCUUUGAU: 0.334
CAGUGCUUGAUAUUUCAGAGUCAGUCAUUGGUUAUACAUGUGUAGUUCCAAAGCACAUAAGCUAGAAGAAGAAAUAUUUCUAGGAGCACUACCAUCUGUUUUCAACAUGA: 0.404
CCUACAUGGUGUGAUGCUGCAUUAUAUAUACAACCGUGUGCAUAUAUUAAAUUCUGUUUGUCGAGUCUGCUUGGGAUUCUUUGGUCUUUGGGUAACCCAAUAUAUCAUAU: 1.36
AAAAAAAGAAAGAAAGAUGCUGCUCAUUUGCAUGCUCACUUACAUAUAUUUGCAUGUUCACUGACCCAGCCUGAGCUCUCCCCAGCCUCGUGGGUGGUGACUUUUCCUGC: 0.711
ACUUGGACACAGGUUUCAGCUGGCCCCAGCCCAGAAGUGACCCCCAGAAAGGGAGGGCCACCGCUUUGCCCCCUGCUUUUACCCUUCCUUCUGGGUGCUCUACACCUCAG: 0.294
GGGCUCCAAGCACAAACUGCCAUUGGCUAUAGAUGGGACUGUGUCCCCCCAAAAUUCAUGUGUUGGAGCCUUAACCCUCAAUGUGAUGGUAUUUGAGAUGGGGCCUUUGG: 0.341
CAGAGAGGGCAGCCCGGUCUCCGGCAGCAGCCCCUUCCAGCUCACGGCUUUCUCCGAUGAAGACAUUAUAGACUUGAAGUAACAGAGUUGAAUCUCAUUUGCCAUCUUUA: 0.289
UAAGACAGACUGAGGGCAUUGCAUUACAAUGGCCAGAAACUACACCCAUGAGUGCAACGACCAAGGUGAAGGACAGCCAGACAGGAAAGGUGACAAAAGCCACCCUGAGU: 0.386
CUUCAAAUAAUGAUCAAUGCUAUUUCAGUGAGCAAACUGUGAAAGGGGCUUUGGAAAGAGUAGGAGGGGUGGGCUGGAUCGGAAGCAACACCCAUUUGGGGUUACCAUGU: 0.448
UUGGAUCGCUUUUGUGACUGUUCAUCUGUCCUUGACAGUGGCUGUCAUCUUGACUACUUUGUUGAUUUGUUGGUAUUGGGGACAUUUUAAAGGCUGAGUUAUUUUUGAAU: 0.944
UCCAUCGGCCGAAACUUUCCCAAGCCAGGGUGUGCGGAGCUUCCCUGUACUGCAGCCAAGGUGACGUGUGACUUGGAUUUGAGUGGAGUUGGGCUUAGCCUUAGUCUCAU: 0.55
AAAUGUUCAUAAUUUUAAUGGAUAUUCUUUGGUGUGAAUAAUUGAAUACAACAUUUUUAAAAUAUCAUCUCUCAAGUUUGCUCUCGUUUGUGGGGAAGGCGACAGAUGCC: 0.863

Set 5
Target: CCNF, cyclin fold, Cln2 fusion (human)
Technique: yeast growth competition, sequencing
Matrix: yeast
Setting: strong parent motif
Reference: not given
Direction: higher = stronger binding
Endpoint: normalised enrichment score
Parent: CDKN1B docking peptide (human); PSACRNLFGPVDH
R5H: 0.326
S2M: 5.59
L7K: 0.743
A3K: 1.09
P1M: 8.69
L7S: 0.341
N6Q: 6.93
P1Y: 7.58
D12L: 7.59
R5A: -0.271
F8L: 0.989
D12V: 6.85
R5L: 0.561
F8N: 0.317
L7G: 0.607
D12C: 7.89
R5M: -0.183
